Experimental data gathered from unrelated publications.
A part holds a random share of what one study measured.
UniProt Q16288, sequence (whole entry, looked up): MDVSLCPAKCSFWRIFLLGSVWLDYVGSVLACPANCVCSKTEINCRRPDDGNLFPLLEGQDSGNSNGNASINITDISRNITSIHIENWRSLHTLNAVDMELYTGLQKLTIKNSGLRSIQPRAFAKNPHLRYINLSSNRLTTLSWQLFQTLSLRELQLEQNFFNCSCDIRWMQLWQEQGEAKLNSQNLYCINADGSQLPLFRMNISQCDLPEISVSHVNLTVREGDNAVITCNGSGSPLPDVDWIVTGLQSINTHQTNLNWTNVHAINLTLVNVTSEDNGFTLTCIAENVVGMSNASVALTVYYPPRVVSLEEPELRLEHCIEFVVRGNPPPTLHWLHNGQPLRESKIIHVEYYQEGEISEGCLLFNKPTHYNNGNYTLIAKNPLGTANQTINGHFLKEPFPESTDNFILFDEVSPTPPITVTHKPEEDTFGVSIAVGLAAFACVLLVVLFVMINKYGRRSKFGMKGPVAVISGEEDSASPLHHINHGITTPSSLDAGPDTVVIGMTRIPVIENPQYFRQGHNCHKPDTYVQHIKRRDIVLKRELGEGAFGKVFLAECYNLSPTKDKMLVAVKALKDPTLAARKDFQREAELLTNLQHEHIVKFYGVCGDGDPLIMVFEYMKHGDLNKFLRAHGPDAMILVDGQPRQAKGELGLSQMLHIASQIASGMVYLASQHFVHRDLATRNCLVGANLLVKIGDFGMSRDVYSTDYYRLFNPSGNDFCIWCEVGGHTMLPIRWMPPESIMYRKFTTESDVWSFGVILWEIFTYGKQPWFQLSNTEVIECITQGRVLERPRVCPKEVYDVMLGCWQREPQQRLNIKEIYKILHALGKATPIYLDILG
UniProt Q9UPE1, sequence (whole entry, looked up): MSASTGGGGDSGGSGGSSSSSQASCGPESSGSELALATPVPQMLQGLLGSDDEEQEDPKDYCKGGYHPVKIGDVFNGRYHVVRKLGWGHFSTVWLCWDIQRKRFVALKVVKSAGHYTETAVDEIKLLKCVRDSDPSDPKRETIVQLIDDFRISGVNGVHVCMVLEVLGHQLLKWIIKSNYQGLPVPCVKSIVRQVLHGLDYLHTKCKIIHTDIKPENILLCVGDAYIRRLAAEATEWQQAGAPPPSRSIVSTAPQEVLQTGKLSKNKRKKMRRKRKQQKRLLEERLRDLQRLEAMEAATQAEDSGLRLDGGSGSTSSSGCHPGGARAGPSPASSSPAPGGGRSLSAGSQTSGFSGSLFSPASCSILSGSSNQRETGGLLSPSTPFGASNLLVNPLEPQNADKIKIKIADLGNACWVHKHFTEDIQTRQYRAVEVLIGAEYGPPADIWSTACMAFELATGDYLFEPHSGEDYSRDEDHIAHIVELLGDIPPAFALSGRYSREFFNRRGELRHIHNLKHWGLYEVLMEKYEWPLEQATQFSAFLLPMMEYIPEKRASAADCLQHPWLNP
UniProt O15146, sequence (whole entry, looked up): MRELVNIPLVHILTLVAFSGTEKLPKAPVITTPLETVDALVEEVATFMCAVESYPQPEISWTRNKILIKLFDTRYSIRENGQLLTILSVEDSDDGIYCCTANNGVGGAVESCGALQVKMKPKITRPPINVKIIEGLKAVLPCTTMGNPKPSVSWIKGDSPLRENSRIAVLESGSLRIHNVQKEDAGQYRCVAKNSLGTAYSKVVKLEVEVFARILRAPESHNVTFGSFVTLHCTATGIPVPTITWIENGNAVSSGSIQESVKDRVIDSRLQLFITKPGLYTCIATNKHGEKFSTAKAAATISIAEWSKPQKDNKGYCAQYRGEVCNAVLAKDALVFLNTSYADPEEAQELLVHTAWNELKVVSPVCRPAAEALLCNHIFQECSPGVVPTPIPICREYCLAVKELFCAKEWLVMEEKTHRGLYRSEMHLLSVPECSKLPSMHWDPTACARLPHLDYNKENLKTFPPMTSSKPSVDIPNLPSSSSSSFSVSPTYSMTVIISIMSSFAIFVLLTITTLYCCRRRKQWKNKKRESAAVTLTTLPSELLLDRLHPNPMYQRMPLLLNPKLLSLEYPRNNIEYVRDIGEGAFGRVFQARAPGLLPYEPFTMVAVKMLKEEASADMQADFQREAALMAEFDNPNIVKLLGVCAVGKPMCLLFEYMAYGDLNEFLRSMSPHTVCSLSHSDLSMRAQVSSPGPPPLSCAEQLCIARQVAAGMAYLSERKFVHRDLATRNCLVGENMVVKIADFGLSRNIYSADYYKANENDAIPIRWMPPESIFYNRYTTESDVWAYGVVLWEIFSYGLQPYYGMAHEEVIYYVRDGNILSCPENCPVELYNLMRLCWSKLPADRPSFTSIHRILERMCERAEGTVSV
UniProt Q9BX84, sequence (whole entry, looked up): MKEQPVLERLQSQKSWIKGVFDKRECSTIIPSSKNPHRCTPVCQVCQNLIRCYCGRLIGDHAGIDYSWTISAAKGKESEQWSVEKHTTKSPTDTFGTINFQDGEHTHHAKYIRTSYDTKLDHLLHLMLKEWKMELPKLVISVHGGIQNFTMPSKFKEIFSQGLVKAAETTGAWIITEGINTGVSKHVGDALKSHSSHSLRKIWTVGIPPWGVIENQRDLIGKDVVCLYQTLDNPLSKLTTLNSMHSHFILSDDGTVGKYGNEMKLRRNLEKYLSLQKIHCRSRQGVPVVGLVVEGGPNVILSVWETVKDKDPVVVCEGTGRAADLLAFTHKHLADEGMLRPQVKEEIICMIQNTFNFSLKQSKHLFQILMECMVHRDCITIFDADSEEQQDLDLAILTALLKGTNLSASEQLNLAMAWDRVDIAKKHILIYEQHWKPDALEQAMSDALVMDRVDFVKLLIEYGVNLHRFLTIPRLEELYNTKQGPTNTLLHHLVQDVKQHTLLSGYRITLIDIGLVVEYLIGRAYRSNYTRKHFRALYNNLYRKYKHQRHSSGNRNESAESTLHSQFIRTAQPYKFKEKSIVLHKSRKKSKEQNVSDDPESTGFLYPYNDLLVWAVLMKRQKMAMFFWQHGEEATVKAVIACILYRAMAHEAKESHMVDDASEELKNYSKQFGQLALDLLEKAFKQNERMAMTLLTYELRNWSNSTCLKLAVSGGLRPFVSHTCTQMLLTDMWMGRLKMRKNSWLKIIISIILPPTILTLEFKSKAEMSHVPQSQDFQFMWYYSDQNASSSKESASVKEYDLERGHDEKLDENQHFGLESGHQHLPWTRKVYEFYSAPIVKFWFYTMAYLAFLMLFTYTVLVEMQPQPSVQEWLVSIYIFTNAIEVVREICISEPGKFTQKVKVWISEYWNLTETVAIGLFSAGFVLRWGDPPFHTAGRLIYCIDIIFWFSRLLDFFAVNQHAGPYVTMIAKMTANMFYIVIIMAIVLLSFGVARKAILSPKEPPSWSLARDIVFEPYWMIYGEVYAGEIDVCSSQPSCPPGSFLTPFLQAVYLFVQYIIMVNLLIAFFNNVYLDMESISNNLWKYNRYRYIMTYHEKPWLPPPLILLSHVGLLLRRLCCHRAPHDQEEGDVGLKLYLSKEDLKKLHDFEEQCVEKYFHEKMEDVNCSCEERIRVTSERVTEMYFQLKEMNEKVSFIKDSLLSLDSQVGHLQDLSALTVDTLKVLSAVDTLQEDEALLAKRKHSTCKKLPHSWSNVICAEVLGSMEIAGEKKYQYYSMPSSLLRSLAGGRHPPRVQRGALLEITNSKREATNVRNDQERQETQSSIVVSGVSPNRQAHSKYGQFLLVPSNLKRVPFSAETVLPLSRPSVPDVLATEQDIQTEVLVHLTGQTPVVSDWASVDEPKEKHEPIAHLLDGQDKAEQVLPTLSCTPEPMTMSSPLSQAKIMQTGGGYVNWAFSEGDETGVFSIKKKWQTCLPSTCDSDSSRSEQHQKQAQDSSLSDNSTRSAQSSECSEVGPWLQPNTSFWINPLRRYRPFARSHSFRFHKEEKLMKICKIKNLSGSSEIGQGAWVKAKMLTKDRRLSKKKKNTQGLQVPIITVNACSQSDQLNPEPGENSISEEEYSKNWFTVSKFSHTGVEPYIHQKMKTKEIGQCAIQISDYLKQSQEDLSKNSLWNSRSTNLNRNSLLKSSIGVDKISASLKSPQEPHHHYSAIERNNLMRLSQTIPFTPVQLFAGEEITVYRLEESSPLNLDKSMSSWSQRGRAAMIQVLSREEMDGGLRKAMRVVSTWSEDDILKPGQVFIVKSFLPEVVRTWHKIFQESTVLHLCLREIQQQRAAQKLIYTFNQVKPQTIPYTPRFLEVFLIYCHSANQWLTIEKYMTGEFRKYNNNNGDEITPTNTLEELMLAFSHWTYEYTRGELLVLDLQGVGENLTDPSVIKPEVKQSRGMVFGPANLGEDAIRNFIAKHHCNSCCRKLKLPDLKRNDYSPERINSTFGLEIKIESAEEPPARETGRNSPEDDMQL
UniProt Q8TBX8, sequence (whole entry, looked up): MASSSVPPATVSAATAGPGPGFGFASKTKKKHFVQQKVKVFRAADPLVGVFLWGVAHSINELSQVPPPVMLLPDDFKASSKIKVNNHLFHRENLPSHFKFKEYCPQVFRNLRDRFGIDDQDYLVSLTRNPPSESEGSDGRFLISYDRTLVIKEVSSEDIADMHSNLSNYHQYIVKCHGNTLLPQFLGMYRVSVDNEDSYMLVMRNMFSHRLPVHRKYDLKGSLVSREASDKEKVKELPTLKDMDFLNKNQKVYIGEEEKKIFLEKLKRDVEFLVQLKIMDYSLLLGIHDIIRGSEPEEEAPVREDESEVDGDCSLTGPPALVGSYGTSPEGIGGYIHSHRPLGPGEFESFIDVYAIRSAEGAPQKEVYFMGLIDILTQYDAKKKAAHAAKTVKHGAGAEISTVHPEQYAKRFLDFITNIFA

Sample 1
Target: Centromere-binding protein 1, full length, N-terminal tag (CBF1, Saccharomyces cerevisiae, UniProt P17106, residues 1-351)
UniProt P17106, sequence (whole entry, looked up): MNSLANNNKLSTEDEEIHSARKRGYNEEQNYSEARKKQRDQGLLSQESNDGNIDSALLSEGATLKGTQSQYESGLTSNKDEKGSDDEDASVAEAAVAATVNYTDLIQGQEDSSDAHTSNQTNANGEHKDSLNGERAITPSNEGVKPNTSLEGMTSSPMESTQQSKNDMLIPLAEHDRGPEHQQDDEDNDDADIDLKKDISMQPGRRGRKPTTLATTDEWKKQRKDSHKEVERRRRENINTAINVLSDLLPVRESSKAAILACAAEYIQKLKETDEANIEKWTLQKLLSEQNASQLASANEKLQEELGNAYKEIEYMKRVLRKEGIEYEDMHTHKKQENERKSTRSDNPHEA
Technique: protein-binding microarray
Form: double-stranded DNA, one strand shown
Medium: in vitro
Concentration: 0.8 µM
Setting: whole 60-bp probe, no competitor
Reading: higher = stronger binding
Oligonucleotide	fluorescence intensity
GAAACAAATTTGACACACATGATTGAATCATTATAGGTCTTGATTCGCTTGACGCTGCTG	950 a.u.
GAATGTGGTGGGTGTGGTGTGGTGTGTGTGGGTTAGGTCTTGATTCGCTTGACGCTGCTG	516 a.u.
GAATTGAATCAGCTTATGGTGATGGCACATTTTTAGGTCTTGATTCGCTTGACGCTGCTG	540 a.u.
GAAATTAGCGTTATCATCATGATTATAATTACATAGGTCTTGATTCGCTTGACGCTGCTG	542 a.u.
GAACAGTTATGTCATAACGTGATTTTTACAATATAGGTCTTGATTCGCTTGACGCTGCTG	1340 a.u.
GAAGTTTCGCCCATTCATCTGACAGGACAGAATTAGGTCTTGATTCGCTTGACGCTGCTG	539 a.u.
CTATTGAGTGTGCGTGATGTTGTGTGTGTGTGTTTCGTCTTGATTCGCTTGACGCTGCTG	680 a.u.
CTAGGCGCAAATAGTTGCCACGTGCGAGTGCGGTTCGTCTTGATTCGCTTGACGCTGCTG	6100 a.u.

Sample 2
Compound: COc1ccc2c(O[C@@H]3C[C@H]4C(=O)N[C@]5(C(=O)O)CC5/C=C\CCCCC[C@H](NC(=O)OC5CCCC5)C(=O)N4C3)cc(-c3csc(NC(=O)C(C)C)n3)nc2c1C (some centres unmarked)
Observed: cell-free assay
Technique: competition with immobilised ligand
Concentration: 1 µM
target	remaining binding
Phosphatidylinositol 5-phosphate 4-kinase type-2 gamma (PIP4K2C, Homo sapiens, UniProt Q8TBX8)	89%
NT-3 growth factor receptor (NTRK3, Homo sapiens, UniProt Q16288)	97%
Transient receptor potential cation channel subfamily M member 6 (TRPM6, Homo sapiens, UniProt Q9BX84)	100%
Dual specificity tyrosine-phosphorylation-regulated kinase 2 (DYRK2, Homo sapiens, UniProt Q92630)	77%
Muscle, skeletal receptor tyrosine-protein kinase (MUSK, Homo sapiens, UniProt O15146)	91%
Eukaryotic translation initiation factor 2-alpha kinase 1 (EIF2AK1, Homo sapiens, UniProt Q9BQI3)	96%
Inhibitor of nuclear factor kappa-B kinase subunit beta (IKBKB, Homo sapiens, UniProt O14920)	83%
Cyclin-dependent kinase 18 (CDK18, Homo sapiens, UniProt Q07002)	100%

Sample 3
Compound: Oc1cccc(-c2nc(N3CCOCC3)c3oc4ncccc4c3n2)c1
Observed: enzyme activity
Mode: inhibitor
Concentration: 0.5 µM
Relative to: control
target	remaining activity [%]
G protein-coupled receptor kinase 6 (GRK6, Homo sapiens, UniProt P43250)	98.2
SRSF protein kinase 3 (SRPK3, Homo sapiens, UniProt Q9UPE1)	95
NUAK family SNF1-like kinase 1 (NUAK1, Homo sapiens, UniProt O60285)	86.6

Mixed results
SMILES	test	system	setting	quantity	result
COc1ccc(-c2c(Nc3ccccn3)[nH]c3c(C4=CCCCC4)c(-c4ccccc4)nn3c2=O)cc1	LC-MS/MS non-compartmental	human, plasma	oral, 50 mg once daily, cycle 1	AUC(0-inf) observed	105 µg·h/mL

A few entries again (sample 2):
target	remaining binding
Transient receptor potential cation channel subfamily M member 6 (TRPM6, Homo sapiens, UniProt Q9BX84)	100%
Dual specificity tyrosine-phosphorylation-regulated kinase 2 (DYRK2, Homo sapiens, UniProt Q92630)	77%
Muscle, skeletal receptor tyrosine-protein kinase (MUSK, Homo sapiens, UniProt O15146)	91%
